Experimental data from different studies.
Parts stem from different laboratories: compare values within a part only. Substitutions count along the parent as printed.

Block 1 — technique: RNA Bind-n-Seq; form: RNA; medium: in vitro; concentration: 1 µM; notes: whole 134-nt RNA, ends assumed; added: 150 mM KCl; baseline: input library; reading: higher = stronger binding
Target: Ras GTPase-activating protein-binding protein 1, RRM domain (G3BP1, Homo sapiens, UniProt Q13283)
Sequence of UniProt Q13283 (whole entry, looked up): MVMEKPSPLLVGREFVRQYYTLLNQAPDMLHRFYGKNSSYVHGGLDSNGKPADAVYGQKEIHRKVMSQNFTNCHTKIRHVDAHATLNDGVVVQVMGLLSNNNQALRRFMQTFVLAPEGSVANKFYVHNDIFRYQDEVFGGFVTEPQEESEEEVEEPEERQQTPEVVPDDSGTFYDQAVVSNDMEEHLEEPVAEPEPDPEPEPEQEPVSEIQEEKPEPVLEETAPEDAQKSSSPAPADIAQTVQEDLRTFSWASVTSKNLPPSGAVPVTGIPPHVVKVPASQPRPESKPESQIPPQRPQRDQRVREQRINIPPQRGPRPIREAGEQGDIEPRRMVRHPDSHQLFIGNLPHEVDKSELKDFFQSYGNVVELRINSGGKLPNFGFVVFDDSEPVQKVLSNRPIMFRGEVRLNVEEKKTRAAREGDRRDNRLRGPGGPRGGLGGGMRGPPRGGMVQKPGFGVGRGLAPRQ
Constant ends, left off below: GGGAGUUCUACAGUCCGACGAUC … UGGAAUUCUCGGGUGUCAAGG
For `UUGUCCCGGAUGGGCAGCCUGCGGGCUCCCGUGGACGAGGACCGCCUGUCCCCGCUGGUGGCGGCCGACUCGCUCCUGGAGCAUGUGCGG`, the log2 enrichment was -0.395.
With `GUCCUGUGCUACACAUCGUAUGUACCGAAUCGGGGUUUUUGGGUUUUUGGUUUUUGGGAAAGUAUUAUGUUACGCCGUUCGGAUCUGCAC` the log2 enrichment was -0.268.
With `ACCAUGCAGGUGGGCAUCUUUGGGAAGUGGGGCAAGGGGGGGAUAGGGAGGGGGGUAACACUUUGGGAACAGGUGGGCCCAGGUCGUUUC` the log2 enrichment was 1.32.
For `UCCUCAAGUCCUGUGCUACACAUCGUAUGUACCGAAUCGGGGCGGGCGGCGGAAAGUAUUAUGUUACGCCGUUCGGAUCUGCACUUCCAG`, the log2 enrichment was -0.281.
For `AGUCCUGUGCUACACAUCGUAUGUACCGAAUCGGUUUUGGGUUUUGGGGUUUUGGGGAAAGUAUUAUGUUACGCCGUUCGGAUCUGCACU`, the log2 enrichment was -0.153.
For `AAGUCCUGUGCUACACAUCGUAUGUACCGAAUCGGGAAAAAAAGGGAGGGAAAGGGAAAGUAUUAUGUUACGCCGUUCGGAUCUGCACUU`, the log2 enrichment was 0.539.
With `UCAAGUCCUGUGCUACACAUCGUAUGUACCGAAUCGGGAAAGGAAAGGGAAAGGGAAAGUAUUAUGUUACGCCGUUCGGAUCUGCACUUC` the log2 enrichment was -0.169.

Block 2 — technique: RNA Bind-n-Seq; form: RNA; medium: in vitro; concentration: 365 nM; baseline: no-protein control; reading: higher = stronger binding
Target: RNA binding protein fox-1 homolog 2, RRM domain, GST-SBP tag (RBFOX2, Homo sapiens, UniProt O43251-10, residues 100-194)
Notes: natural RNA segment, single round, ends assumed
Constant ends, left off below: GGGAGUUCUACAGUCCGACGAUC … UGGAAUUCUCGGGUGCCAA
Construct (chain): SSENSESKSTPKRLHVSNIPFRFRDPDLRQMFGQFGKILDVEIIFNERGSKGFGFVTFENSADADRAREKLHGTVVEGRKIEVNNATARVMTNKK
For `GUUGUUCAUUUCAGCCUCUGGAUGGCUGGCUGCCUUAAACACAAUCAAUUUCAAAGCUCCAUUUCAUAAAGGGGCUACUUUGAAGGAGUUAAGAUGGAAGACUUCCUUCU`, “RBNS enrichment (R)” read 0.244.
`UAAUGAGAAUGAAAAGCACAUGGGUUGAUGGGAAGGGACAAGAUUACCACGUUAGGAGGGUGAGCAGCCCUCUGCUAUGUGCCCAGGACCCUGCCUGGACAUUGCAUUUC` — result for “RBNS enrichment (R)”: 2.08.
For `AAGUCUGAUCUCCGCAGGAAACUCUUGUGAAGUAACUGGUGCCUGAGGUGCACUCAAGUGUGGGACUGAGCUUGGCUUCUGGCUCAGUUUCCAUUUUUUGGUCUGAAACU`, “RBNS enrichment (R)” read 0.392.
`GCCACGUUGUCAUUGUGAGUCUAUAGCUUGACUCCUUGGAGAACAAUAUUCAUUUGGUUGUGGAGACUGAUUUGCUGGGAGAAAUCUGUCCUGUUACUUUCUGGUCAUCC`: “RBNS enrichment (R)” 0.651.
For `UUUACACAAUUCUGAAAUCUGUUGCUUUUGUAAACAAAUUGUUUGAUCUUAGUGAUCCCCCUACUACUACCACCAAUUCACUUCACAAAGUCAGUUAUGAGUCUACCAGA`, “RBNS enrichment (R)” read 0.572.
`AGUUAUCACUUUUGGGUGUCUGUAUCCUAAGAAGUUUCUGAAAAGAUCUAAAGCCUUUUUAUCCCAUAUCCCAAAUUCUUAUGAGCCACUCACAGCAGGCAGCAUAUGUU`: “RBNS enrichment (R)” 0.375.
Under “RBNS enrichment (R)”, `GUUGUGGUUUGUAGCAGGAAAGGACACUCCUGAUGUUGGGAAUUUGCAAGAAGAAUCUGGGCUGAGCUGCUUCAAACAAGGAGGCUUUGCUCUGGAGUGAGGAGGGAGUG` is recorded as 1.42.
`CUCCAACUCCUUCUGGGAAGGUUGAGCUGGCCAGAGCCAAGAAACACUUCCAGGAACAUUAACAUGAAGGGAAGAGGUGAGCCACCCUCCUUGCCUGGCCUUAGCCGUUU` — result for “RBNS enrichment (R)”: 0.326.
Under “RBNS enrichment (R)”, `AACAGCAAGCAUUAUGGUCAAACAGCAAAGGCCAUAACCUUUUGGGAUUUUUUUUUUUUUAAAAUACUUUAGGGACUGUUGUAAUUUCUCAUAUGGUGCUGGAAAUGGUU` is recorded as 0.683.
For `CUUCACCUUUCUGUCUGAAAUACAACUGUGGCUUUUGCAGUAGAAGACUAUGUUGGUGGUUUCAUUGUGUUCUGGGGUCUGGGGUGGGAAAGAAAAAGAAAAAGCUGUAC`, “RBNS enrichment (R)” read 0.956.

Block 3 — target: CCND2, cyclin fold, Cln2 fusion (human); technique: yeast growth competition, sequencing; medium: yeast; notes: weak parent motif; baseline: not given; reading: higher = stronger binding
Starting sequence: SLBP docking peptide (human); ARYKRKLLINDFG; partner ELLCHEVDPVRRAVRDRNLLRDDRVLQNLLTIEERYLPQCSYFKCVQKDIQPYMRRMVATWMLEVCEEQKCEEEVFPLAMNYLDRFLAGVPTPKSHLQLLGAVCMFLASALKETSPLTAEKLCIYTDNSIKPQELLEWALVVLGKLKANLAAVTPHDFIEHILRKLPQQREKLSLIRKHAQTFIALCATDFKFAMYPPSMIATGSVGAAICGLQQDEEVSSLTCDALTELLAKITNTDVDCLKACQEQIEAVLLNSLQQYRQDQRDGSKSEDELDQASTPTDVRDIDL
`ARYKRKLLANDFG [I9A]` — result for “normalised enrichment score”: -0.237.
Under “normalised enrichment score”, `AAYKRKLLINDFG [R2A]` is recorded as 0.0945.
`ARYKDKLLINDFG [R5D]`: “normalised enrichment score” 0.159.
Under “normalised enrichment score”, `ARYKRKLLINDAG [F12A]` is recorded as 0.141.
`ARYKRKLLINDFD [G13D]` — result for “normalised enrichment score”: 0.0371.
`ARYKRKLLINDFC [G13C]` — result for “normalised enrichment score”: 0.284.
`ARYKRKLDINDFG [L8D]` — result for “normalised enrichment score”: 0.0635.
`ARYKEKLLINDFG [R5E]` — result for “normalised enrichment score”: 0.274.
`ARHKRKLLINDFG [Y3H]`: “normalised enrichment score” 0.0995.

Single results of other studies
`PhoQ, residues 284 288 289 292 302 303 SSTMSV` has a fold induction of 14.9 (PhoP, residues 12 14 15 18 19 IFFTR (Escherichia coli, UniProt P23836); Sort-seq, item: YFP reporter; E. coli; PhoQ-PhoP variant library, added: 10 µM Mg2+; baseline: high Mg2+ state, higher = stronger signaling).

Repeated from above (block 2):
For `CUUCACCUUUCUGUCUGAAAUACAACUGUGGCUUUUGCAGUAGAAGACUAUGUUGGUGGUUUCAUUGUGUUCUGGGGUCUGGGGUGGGAAAGAAAAAGAAAAAGCUGUAC`, “RBNS enrichment (R)” read 0.956.
Under “RBNS enrichment (R)”, `GUUGUGGUUUGUAGCAGGAAAGGACACUCCUGAUGUUGGGAAUUUGCAAGAAGAAUCUGGGCUGAGCUGCUUCAAACAAGGAGGCUUUGCUCUGGAGUGAGGAGGGAGUG` is recorded as 1.42.
For `UUUACACAAUUCUGAAAUCUGUUGCUUUUGUAAACAAAUUGUUUGAUCUUAGUGAUCCCCCUACUACUACCACCAAUUCACUUCACAAAGUCAGUUAUGAGUCUACCAGA`, “RBNS enrichment (R)” read 0.572.
